Measured values pooled from the literature.
Lines come from different studies, so protocols differ. Numbers after ± are the reported error.
Target: 5-hydroxytryptamine receptor 2A (HTR2A, Homo sapiens, UniProt P28223)
Sequence of UniProt P28223 (whole entry, looked up): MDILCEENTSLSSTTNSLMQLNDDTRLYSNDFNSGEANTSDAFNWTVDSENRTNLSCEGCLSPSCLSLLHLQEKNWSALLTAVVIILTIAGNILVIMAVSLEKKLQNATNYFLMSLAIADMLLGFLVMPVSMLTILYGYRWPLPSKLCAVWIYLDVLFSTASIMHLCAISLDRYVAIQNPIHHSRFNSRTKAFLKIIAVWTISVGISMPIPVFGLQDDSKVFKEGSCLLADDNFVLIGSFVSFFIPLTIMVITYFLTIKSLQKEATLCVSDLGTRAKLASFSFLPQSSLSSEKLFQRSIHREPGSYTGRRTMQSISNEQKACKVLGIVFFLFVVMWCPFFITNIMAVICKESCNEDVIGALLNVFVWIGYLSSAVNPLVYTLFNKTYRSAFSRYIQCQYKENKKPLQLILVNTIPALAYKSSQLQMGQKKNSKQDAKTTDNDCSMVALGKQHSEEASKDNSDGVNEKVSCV

`CN1CCN(c2cc(-c3ccncc3)c(-c3ccc4ccccc4c3)nn2)CC1` gave an activation of -8.5% (agonist, FLIPR; 12.5 µM).
For `CNC(C)Cc1ccc2nonc2c1` (centres unmarked), the Emax was 56.1 ± 2.3% (agonist; baseline: 5-HT).
`COc1cc(CCNC(C)c2ccccc2)c(OC)cc1C#N` (centres unmarked) gave an Emax of 74% (agonist).
For `C/C=C1/CN2CC[C@]34C(=C(C(=O)OC)[C@H]1C[C@H]23)Nc1ccc(I)cc14`, the inhibition was under 50% (10 µM).
The Emax of `COc1cc(CCNC(C)c2ccccc2O)c(OC)cc1C#N` (single isomer, unassigned; (+)) is reported as 91% (agonist; cell-based).
`CC(C)N(CCc1c[nH]c2cccc(OC(=O)CCCC(=O)O)c12)C(C)C.Cl`: activity “inactive” (inositol phosphate accumulation, agonist, HTRF IP1; HEK293; concentration not given).
`CCN(CC)CCCC[C@H](NC(=O)[C@H](CC(C)C)NC(=O)[C@H](C)NC(=O)[C@H](Cc1ccccc1)NC(=O)c1ccc(C(C)(C)C)cc1)C(=O)N[C@@H](CO)C(=O)OC` gave a specific binding of 61.2% (antagonist, radioligand binding; 10 µM; baseline: control binding).
`COc1c(O)c(Br)c2c3c1-c1cc4c(cc1CC3N(C)CC2)OCO4` (centres unmarked) gave an apparent Kb of 126 ± 30 nM (calcium flux, antagonist, FLIPR; HEK293; with: serotonin).
The inhibition of `CN1CCN(c2nc(N)c3ccccc3n2)CC1` is reported as 6.7% (radioligand binding, radioligand competition binding; 0.1 µM, mean of two; baseline: control specific binding).
For `COc1cc(CCNC(c2ccccc2O)C2CC2)c(OC)cc1C#N` (centres unmarked), the Emax was 86% (agonist).
With `COc1c(Cl)c2c3c(c1OC)-c1cc4c(cc1C[C@@H]3N(C)CC2)OCO4` the apparent Kb was 63 nM (calcium flux, antagonist, FLIPR; HEK293; with: serotonin).

Some of these lines once more:
For `COc1cc(CCNC(c2ccccc2O)C2CC2)c(OC)cc1C#N` (centres unmarked), the Emax was 86% (agonist).
